# Measured values gathered from unrelated publications.
# Each line is one published result; not all experiments were run side by side.
# Sequence of UniProt P51956 (whole entry, looked up): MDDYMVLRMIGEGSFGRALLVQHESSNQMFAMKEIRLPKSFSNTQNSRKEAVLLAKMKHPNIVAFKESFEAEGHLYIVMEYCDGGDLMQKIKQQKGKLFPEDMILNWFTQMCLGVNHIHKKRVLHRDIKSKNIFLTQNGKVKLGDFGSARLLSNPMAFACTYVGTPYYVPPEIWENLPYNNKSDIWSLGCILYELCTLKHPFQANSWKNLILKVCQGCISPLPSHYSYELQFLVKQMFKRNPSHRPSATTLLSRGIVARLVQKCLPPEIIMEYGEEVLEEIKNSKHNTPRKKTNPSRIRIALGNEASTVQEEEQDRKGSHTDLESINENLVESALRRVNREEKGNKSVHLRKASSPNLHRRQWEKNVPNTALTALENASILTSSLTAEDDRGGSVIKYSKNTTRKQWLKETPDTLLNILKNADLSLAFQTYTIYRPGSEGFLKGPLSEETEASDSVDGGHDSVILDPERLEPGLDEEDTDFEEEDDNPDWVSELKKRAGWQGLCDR
# Sequence of UniProt Q04759 (whole entry, looked up): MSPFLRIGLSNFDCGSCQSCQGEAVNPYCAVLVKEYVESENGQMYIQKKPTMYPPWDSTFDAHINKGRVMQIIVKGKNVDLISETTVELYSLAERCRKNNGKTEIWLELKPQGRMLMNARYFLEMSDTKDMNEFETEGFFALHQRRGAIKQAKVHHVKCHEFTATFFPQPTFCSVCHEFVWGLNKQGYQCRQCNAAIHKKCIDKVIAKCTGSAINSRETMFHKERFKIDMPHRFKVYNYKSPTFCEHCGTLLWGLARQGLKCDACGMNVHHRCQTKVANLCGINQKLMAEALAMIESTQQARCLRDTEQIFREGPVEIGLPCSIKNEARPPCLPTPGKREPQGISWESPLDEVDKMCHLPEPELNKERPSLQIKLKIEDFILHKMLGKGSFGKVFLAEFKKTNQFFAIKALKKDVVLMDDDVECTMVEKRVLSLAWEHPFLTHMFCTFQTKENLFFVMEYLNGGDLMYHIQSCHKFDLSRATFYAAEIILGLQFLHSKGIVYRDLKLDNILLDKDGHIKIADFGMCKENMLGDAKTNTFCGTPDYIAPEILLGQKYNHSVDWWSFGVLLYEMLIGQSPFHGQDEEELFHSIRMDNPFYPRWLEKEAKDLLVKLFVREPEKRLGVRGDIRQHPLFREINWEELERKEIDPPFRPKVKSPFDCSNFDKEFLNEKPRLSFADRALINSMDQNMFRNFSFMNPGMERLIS
# Sequence of UniProt P42336 (whole entry, looked up): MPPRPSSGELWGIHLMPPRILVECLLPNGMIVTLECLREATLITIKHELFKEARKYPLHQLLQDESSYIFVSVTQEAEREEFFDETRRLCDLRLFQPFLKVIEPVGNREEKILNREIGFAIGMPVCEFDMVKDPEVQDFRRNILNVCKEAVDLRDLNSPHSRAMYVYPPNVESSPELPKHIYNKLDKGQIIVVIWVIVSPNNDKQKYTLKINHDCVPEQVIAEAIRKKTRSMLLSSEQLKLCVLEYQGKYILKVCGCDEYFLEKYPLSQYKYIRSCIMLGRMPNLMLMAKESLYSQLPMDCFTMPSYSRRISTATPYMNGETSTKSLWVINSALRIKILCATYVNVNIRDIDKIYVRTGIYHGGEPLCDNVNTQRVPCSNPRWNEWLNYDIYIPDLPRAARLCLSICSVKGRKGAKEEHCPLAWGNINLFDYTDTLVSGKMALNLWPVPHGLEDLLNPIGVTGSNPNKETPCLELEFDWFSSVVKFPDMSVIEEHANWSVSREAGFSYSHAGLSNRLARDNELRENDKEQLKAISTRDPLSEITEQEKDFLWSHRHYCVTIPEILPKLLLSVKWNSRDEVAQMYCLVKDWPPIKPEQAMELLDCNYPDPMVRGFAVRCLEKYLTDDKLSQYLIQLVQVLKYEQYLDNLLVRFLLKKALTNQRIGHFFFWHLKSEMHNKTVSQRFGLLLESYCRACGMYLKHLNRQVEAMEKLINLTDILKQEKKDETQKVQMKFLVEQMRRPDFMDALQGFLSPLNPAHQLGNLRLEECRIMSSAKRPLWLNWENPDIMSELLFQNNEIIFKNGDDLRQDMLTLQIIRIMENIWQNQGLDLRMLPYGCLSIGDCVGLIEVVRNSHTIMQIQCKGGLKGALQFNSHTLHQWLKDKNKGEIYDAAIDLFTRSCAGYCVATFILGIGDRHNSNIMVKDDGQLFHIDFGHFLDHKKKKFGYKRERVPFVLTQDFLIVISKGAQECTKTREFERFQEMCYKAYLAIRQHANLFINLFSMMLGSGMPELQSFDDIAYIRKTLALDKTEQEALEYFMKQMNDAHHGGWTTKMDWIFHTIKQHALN
# Sequence of UniProt Q16816 (whole entry, looked up): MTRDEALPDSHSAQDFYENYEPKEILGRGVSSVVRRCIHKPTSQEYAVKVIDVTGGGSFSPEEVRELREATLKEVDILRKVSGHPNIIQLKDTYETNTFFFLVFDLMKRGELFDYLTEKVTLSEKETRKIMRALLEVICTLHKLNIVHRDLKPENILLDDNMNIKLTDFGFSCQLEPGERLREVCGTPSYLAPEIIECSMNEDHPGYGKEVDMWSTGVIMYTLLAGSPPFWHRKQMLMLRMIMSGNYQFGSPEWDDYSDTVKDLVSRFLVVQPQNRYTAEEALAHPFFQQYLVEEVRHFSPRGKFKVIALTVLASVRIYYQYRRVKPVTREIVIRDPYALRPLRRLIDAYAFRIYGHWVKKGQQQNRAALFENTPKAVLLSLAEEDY
# Sequence of UniProt P51817 (whole entry, looked up): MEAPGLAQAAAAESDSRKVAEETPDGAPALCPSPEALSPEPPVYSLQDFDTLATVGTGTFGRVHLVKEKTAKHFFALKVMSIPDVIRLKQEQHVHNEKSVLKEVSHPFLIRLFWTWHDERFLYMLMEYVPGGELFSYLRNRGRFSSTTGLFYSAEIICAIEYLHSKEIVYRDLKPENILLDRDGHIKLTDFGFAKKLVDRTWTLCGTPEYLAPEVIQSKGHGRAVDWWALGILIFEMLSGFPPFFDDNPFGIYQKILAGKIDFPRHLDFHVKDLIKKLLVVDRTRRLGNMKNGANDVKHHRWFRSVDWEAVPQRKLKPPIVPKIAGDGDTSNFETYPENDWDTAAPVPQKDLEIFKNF
SMILES,target or system,test,system,conditions,endpoint,value
CCCCC(=O)Nc1ccc(-c2ccc3ncn(CCC)c(=O)c3c2)cn1,"Phosphorylase b kinase gamma catalytic chain, skeletal muscle/heart isoform (PHKG1, Homo sapiens, UniProt Q16816)","binding, competition with immobilised ligand",,0.5 µM,remaining binding,100%
Nc1ccn([C@H]2CC[C@@H](CO)O2)c(=O)n1,MT4,"cell growth or viability, MTT",,5 days,CC50,> 237 µM
O[C@H](CN[C@@H](COCC1CC1)Cc1ccccc1)c1cc(Cl)cc2c1-c1ccc(Cl)cc1C2,HepG2,cell growth or viability,,48 h,CC50,13.4 µM
O=C1C(NCCc2c[nH]c3ccccc23)=CC2=NCCc3c[nH]c1c32,HCT-116,"cell growth or viability, MTT",,72 h,CC50,2 µM
CCCCCCCNC[C@H](O)c1cc(Cl)cc2c1-c1ccc(Cl)cc1C2,HepG2,cell growth or viability,,48 h,CC50,6.7 µM
O=C1C=C2NCCc3c[nH]c(c32)C1=O,HCT-116,"cell growth or viability, MTT",,72 h,CC50,50 µM
Cc1noc(C)c1Cn1cc(N2C(=O)CN(Cc3cccc(O)c3)C2=O)cn1,,,"male Sprague-Dawley rat, plasma","oral, 30 mg/kg, 8 h",concentration,5.02 ng/mL
Nc1ccn([C@@H]2O[C@H](CO)[C@@H](O)C2(F)F)c(=O)n1,HEK293,"cell growth or viability, MTT",,"0.15625 µg/mL, 24 h",viability,91.5%
C=CC(=O)N1CCC(COCC(=O)N2CCN(c3nc(-c4cnc(N)nc4C(F)F)nc(N4CCOC[C@@H]4C)n3)CC2)CC1,"Serine/threonine-protein kinase Nek3 (NEK3, Homo sapiens, UniProt P51956)","binding, competition with immobilised ligand",,1 µM,remaining binding,96%
Cc1ccc(N(c2ccc(NC(=O)CN(C)c3ccccc3N3CCCC3=O)cc2)C2CCCC2)cc1,HepG2,"cell growth or viability, ATP luminescence",,48 h,CC50,> 40 µM
O=C(Sc1cccccc1=O)c1cccc(C(F)(F)F)c1,HepDES19,"cell growth or viability, MTS",,72 h,CC50,33.8 µM
Cc1ccnc2c1NC(=O)c1cccnc1N2C1CC1,MT4,"cell growth or viability, MTT",,5 days,CC50,> 15 µM
O=C(c1ccc(F)cc1)C1CCN(CCn2c(=O)[nH]c3ccccc3c2=O)CC1,,metabolic stability,"monkey, liver microsomes",5 min,compound remaining,94.3%
O[C@H](CN1CCN(C(c2ccccc2)c2ccccc2)CC1)c1cc(Cl)cc2c1-c1ccc(Cl)cc1C2,HepG2,cell growth or viability,,48 h,CC50,> 50 µM
Cc1ccc(Oc2ccc(NC(=O)CN(C)c3ccccc3N3CCCC3=O)cc2)cc1,HepG2,"cell growth or viability, ATP luminescence",,48 h,CC50,> 40 µM
CCOC(=O)[C@@]12C[C@@H]1[C@@H](n1ccc3c(NC)nc(C#Cc4ccc(Cl)s4)nc31)[C@H](O)[C@@H]2O,HepG2,"cell growth or viability, ATP luminescence",,72 h,CC50,> 31.6 µM
CNc1ncc2c(/C=C/C(=O)N3CCC(OC)CC3)nn(Cc3cccc(C(F)(F)F)c3)c2n1,"Protein kinase C theta type (PRKCQ, Homo sapiens, UniProt Q04759)","enzyme activity, inhibitor, radiometric",,1 µM,remaining activity,97%
O=C1CCC(N2C(=O)c3cccc(NCCc4cn(Cc5ccc(-c6nc7cc(-c8ccccc8)ccn7c6Nc6ccc(C(=O)O)cc6)cc5)nn4)c3C2=O)C(=O)N1 (stereo not drawn),HCT-116,cell growth or viability,,72 h,CC50,151 µM
Cc1ccc(C(C)(C)c2ccc(NC(=O)CN(C)c3ccccc3N3CCCC3=O)cc2)cc1,HepG2,"cell growth or viability, ATP luminescence",,48 h,CC50,> 40 µM
CCCCN(CCCC)CC(O)c1cc(Cl)cc2c1-c1ccc(Cl)cc1/C2=C/c1ccc(Cl)cc1 (stereo not drawn),HepG2,"cell growth or viability, MTT",,72 h,CC50,> 100 µM
COC1=CC2=[N+](C)CCc3c[nH]c(c32)C1=O,HCT-116,"cell growth or viability, MTT",,72 h,CC50,10 µM
COc1cccc(OC)c1-c1cc(C(=O)NC2(C(=O)O)C3CC4CC(C3)CC2C4)nn1-c1ccc(C(=O)N(C)CCCN(C)CCCN(C)C(=O)CN2CCN(CC(=O)[O-])CCN(CC(=O)[O-])CCN(CC(=O)[O-])CC2)cc1C(C)C.[177Lu+3] (stereo not drawn),HT-29 tumour model,,"host not given, pancreas","24 h, tumour-bearing",tracer uptake,0.1 %ID/g
Cn1nc2c(=O)n(C3CC3)cc(Cl)c2c1Cc1ccc(C(F)(F)F)nc1,,nephelometry,aqueous buffer,"30 min, pH 6.5",kinetic solubility,70 to 140 µM
CN(CC(=O)Nc1ccc(N(C)c2ccc(F)c(F)c2)cc1)c1ccccc1N1CCCC1=O,HepG2,"cell growth or viability, ATP luminescence",,48 h,CC50,> 40 µM
COc1ccc(S(=O)(=O)ON=C2C=C(C)C(=O)C(C)=C2)cc1,DU-145,cell growth or viability,,,CC50,3.75 µM
COc1cc2c(cc1OC)[C@@H]1C(=O)c3ccc4c(c3O[C@@H]1CO2)C=CC(C)(C)O4,A549,"cell growth or viability, resazurin",,72 h,CC50,20 µM
CCCCCCCCNC[C@H](O)c1cc(Cl)cc2c1-c1ccc(Cl)cc1C2,HepG2,cell growth or viability,,48 h,CC50,6.8 µM
CCCN(c1ccc(C)cc1)c1ccc(NC(=O)CN(C)c2ccccc2N2CCCC2=O)cc1,HepG2,"cell growth or viability, ATP luminescence",,48 h,CC50,27 µM
Cn1nc2c(=O)n(C3CC3)ccc2c1[C@](O)(c1ccc(C(F)(F)F)nc1)C(F)(F)F,,nephelometry,aqueous buffer,"30 min, pH 6.5",kinetic solubility,50 to 100 µM
Cc1cc([C@@H](C)Nc2ccccc2C(=O)O)c2nc(N3CCC(F)(F)CC3)c(C#N)c(=O)n2c1,"Phosphatidylinositol 4,5-bisphosphate 3-kinase catalytic subunit alpha isoform (PIK3CA, Homo sapiens, UniProt P42336)","binding, competition with immobilised ligand",,10 µM,remaining binding,92%
O=c1[nH]cnc2c1ncn2[C@H]1CC[C@@H](CO)O1,MT4,"cell growth or viability, MTT",,5 days,CC50,> 212 µM
CCCCNC[C@@H](O)c1cc(Cl)cc2c1-c1ccc(Cl)cc1C2,HepG2,cell growth or viability,,48 h,CC50,8.7 µM
Cc1ccc(Oc2ccc(NC(=O)CNc3ccccc3-n3cncn3)cc2)cc1,HepG2,"cell growth or viability, ATP luminescence",,48 h,CC50,> 40 µM
COc1cc(-c2cncc3c2CN(C)Cc2cc(N4CCNCC4)ccc2-3)cc(OC)c1OC,"cAMP-dependent protein kinase catalytic subunit PRKX (PRKX, Homo sapiens, UniProt P51817)","enzyme activity, inhibitor",,1 µM,remaining activity,104%
O[C@H](CNCCCC(F)(F)F)c1cc(Cl)cc2c1-c1ccc(Cl)cc1C2,HepG2,cell growth or viability,,48 h,CC50,13.5 µM
Cc1ccc(Oc2ccc(NC(=O)CNc3ccccc3N3CCCC3=O)cc2)cc1,HepG2,"cell growth or viability, ATP luminescence",,48 h,CC50,14.3 µM
C1=C/COCc2cc(ccc2OCCN2CCCC2)Nc2nccc(n2)-c2cccc(c2)COC/1,"Epidermal growth factor receptor (EGFR, Homo sapiens, UniProt P00533, T790M)",binding,,0.1 µM,remaining binding,94%
Cc1ccc(N(c2ccc(NC(=O)CN(C)c3ccccc3N3CCCC3=O)cc2)C(C)C)cc1,HepG2,"cell growth or viability, ATP luminescence",,48 h,CC50,> 40 µM
NC1=CC2=NCCc3c[nH]c(c32)C1=O,HCT-116,"cell growth or viability, MTT",,72 h,CC50,0.19 µM

# Excerpt of the above:
SMILES,target or system,test,system,conditions,endpoint,value
Cc1ccnc2c1NC(=O)c1cccnc1N2C1CC1,MT4,"cell growth or viability, MTT",,5 days,CC50,> 15 µM
NC1=CC2=NCCc3c[nH]c(c32)C1=O,HCT-116,"cell growth or viability, MTT",,72 h,CC50,0.19 µM
CCCCN(CCCC)CC(O)c1cc(Cl)cc2c1-c1ccc(Cl)cc1/C2=C/c1ccc(Cl)cc1 (stereo not drawn),HepG2,"cell growth or viability, MTT",,72 h,CC50,> 100 µM
